Published values from different studies.
Numbered parts are unrelated; each lists some results of a single study.
UniProt P49841, sequence (whole entry, looked up): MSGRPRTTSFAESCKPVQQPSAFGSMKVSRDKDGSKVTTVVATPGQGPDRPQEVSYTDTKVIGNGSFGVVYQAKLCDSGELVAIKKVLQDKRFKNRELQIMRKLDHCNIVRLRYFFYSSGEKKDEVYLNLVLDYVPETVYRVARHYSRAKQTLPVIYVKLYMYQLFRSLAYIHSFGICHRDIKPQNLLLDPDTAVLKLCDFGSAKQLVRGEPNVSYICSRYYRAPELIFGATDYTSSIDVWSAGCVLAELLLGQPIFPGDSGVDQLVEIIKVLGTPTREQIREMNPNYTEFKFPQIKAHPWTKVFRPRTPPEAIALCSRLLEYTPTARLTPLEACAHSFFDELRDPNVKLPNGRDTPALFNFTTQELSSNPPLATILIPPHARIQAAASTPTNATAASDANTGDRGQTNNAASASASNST
UniProt P42684, sequence (whole entry, looked up): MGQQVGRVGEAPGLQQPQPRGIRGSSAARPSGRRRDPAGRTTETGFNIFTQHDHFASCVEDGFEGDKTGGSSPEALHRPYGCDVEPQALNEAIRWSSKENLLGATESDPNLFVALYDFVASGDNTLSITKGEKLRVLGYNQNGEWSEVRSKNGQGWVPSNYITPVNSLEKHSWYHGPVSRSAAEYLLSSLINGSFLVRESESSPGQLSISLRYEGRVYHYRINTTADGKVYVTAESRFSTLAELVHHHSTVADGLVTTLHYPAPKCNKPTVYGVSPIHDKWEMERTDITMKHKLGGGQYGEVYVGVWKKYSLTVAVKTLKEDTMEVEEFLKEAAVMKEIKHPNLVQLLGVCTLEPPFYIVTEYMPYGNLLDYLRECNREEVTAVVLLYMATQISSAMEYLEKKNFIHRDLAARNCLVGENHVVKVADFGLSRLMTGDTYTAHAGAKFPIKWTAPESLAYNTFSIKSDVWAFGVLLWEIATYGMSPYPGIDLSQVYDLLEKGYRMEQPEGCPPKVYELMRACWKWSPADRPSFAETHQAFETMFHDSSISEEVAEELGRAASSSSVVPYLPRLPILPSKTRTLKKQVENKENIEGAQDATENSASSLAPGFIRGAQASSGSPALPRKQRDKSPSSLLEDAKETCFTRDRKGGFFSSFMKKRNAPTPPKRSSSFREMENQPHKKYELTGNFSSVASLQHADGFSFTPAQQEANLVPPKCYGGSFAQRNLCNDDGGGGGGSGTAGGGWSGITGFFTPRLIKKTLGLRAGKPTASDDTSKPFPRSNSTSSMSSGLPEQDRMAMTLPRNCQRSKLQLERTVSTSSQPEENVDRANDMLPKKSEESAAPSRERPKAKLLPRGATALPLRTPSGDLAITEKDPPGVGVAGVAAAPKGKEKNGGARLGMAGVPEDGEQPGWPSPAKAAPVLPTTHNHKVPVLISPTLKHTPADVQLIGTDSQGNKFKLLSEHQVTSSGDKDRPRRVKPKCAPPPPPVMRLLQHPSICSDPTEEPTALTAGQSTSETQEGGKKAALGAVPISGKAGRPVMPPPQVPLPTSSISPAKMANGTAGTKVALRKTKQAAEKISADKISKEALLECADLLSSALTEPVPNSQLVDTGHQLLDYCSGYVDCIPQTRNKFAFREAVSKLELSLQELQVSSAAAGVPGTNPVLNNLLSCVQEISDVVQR
UniProt Q04912, sequence (whole entry, looked up): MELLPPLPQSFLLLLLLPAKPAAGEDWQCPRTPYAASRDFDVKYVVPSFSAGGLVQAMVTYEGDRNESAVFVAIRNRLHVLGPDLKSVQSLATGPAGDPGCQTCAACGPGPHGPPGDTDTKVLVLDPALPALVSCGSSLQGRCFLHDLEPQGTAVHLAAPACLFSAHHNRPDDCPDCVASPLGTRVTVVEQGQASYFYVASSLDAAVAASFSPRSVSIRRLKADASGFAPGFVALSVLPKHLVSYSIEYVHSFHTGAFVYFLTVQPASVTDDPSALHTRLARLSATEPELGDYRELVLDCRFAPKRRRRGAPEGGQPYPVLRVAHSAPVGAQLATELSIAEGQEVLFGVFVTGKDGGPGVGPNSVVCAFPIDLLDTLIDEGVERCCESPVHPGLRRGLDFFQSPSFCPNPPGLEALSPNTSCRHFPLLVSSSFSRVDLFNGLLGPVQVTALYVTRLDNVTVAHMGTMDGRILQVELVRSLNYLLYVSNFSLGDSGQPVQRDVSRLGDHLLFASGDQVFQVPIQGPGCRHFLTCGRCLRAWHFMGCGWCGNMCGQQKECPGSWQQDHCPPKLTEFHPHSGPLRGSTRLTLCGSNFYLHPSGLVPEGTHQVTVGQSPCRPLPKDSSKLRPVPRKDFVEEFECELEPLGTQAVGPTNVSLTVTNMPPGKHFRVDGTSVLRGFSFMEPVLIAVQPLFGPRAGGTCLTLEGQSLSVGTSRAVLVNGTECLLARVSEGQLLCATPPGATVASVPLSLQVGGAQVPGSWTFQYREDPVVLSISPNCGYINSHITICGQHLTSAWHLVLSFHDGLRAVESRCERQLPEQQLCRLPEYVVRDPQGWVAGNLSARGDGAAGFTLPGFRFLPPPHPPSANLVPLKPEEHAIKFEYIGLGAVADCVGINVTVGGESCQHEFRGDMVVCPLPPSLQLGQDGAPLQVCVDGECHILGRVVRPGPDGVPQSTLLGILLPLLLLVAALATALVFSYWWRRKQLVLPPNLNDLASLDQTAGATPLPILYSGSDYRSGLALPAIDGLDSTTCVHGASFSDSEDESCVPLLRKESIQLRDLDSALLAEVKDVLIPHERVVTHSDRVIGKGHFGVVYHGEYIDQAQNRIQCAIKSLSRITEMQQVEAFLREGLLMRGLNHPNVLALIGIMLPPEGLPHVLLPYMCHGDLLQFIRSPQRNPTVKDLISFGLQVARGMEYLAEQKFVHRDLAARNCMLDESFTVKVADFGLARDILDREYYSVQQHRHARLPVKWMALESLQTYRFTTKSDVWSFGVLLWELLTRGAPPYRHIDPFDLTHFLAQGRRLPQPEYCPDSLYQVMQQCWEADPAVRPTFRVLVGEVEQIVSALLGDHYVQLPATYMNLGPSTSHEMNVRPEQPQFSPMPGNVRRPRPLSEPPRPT
UniProt Q9UHD2, sequence (whole entry, looked up): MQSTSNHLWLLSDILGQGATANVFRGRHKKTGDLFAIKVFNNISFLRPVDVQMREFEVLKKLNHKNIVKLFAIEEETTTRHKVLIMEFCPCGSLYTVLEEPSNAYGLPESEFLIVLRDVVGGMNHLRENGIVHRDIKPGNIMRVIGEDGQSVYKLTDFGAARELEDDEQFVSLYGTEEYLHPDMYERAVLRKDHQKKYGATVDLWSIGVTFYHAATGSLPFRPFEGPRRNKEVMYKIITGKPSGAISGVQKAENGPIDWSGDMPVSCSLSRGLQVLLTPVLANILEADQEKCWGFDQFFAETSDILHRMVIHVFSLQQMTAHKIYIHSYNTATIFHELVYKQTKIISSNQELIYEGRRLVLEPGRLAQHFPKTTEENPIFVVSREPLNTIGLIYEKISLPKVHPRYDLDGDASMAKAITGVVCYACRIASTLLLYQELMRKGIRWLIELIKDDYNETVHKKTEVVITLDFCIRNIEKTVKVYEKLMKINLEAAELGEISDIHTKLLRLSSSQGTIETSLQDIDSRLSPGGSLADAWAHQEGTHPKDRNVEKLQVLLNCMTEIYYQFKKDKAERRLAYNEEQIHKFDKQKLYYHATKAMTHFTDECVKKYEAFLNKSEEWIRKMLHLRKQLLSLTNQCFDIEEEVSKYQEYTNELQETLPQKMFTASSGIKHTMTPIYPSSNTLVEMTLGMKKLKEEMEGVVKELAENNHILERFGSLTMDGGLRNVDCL
UniProt Q07002, sequence (whole entry, looked up): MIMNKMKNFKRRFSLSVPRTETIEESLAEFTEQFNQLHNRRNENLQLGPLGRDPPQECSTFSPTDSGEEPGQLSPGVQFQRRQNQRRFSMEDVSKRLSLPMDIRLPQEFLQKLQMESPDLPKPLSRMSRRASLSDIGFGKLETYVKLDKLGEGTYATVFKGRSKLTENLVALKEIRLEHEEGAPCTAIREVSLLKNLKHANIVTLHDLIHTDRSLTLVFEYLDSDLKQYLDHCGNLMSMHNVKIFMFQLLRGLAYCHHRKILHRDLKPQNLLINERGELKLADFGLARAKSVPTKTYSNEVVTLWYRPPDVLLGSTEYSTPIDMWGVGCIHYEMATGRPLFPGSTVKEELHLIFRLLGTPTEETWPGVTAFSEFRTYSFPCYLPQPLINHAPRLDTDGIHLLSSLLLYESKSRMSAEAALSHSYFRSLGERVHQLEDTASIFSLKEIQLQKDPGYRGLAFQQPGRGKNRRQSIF
UniProt Q9HC98, sequence (whole entry, looked up): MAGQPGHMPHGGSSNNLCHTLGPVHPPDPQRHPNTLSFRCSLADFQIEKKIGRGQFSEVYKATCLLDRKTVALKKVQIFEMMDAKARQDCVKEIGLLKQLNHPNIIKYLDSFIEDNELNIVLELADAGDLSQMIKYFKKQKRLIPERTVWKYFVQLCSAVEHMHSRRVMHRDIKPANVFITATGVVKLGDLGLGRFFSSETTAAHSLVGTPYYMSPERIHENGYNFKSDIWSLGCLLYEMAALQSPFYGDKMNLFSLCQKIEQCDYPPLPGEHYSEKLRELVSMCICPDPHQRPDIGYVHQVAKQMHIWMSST

Sample 1
Sample: hydrocarbon/water
pH: 7.4
Structure (SMILES) | logD
CC(C)C[C@@H]1NC(=O)[C@H](C)N(C)C(=O)[C@H](CC2CCCCC2)NC(=O)CN(CC(C)C)C(=O)[C@H]2CCCN2C(=O)[C@H](CC2CCCCC2)NC(=O)[C@H](C)N(C)C(=O)[C@H](CC(C)C)NC(=O)Cn2cc(nn2)CN(C)C1=O | 2.7
CCCCCN1CC(=O)N[C@@H](Cc2ccccc2)C(=O)N2CCC[C@@H]2C(=O)N(C)[C@@H](CC(C)C)C(=O)N[C@@H](C)C(=O)N(CC)CC(=O)N[C@@H](CC(C)C)C(=O)N2CCC[C@@H]2C(=O)N(C)[C@@H](CC(C)C)C(=O)N[C@@H](C)C1=O | 1.97
CCC[C@H]1C(=O)N[C@@H](CC2CCCCC2)C(=O)N(C)[C@@H](C)C(=O)N[C@@H](CC(C)C)C(=O)N(C)Cc2cn(nn2)CC(=O)N[C@@H](C2CCCCC2)C(=O)N(C)[C@@H](C)C(=O)N[C@@H](CC2CCCCC2)C(=O)N2CCC[C@@H]2C(=O)N1C | 2.7
CC(C)C[C@@H]1NC(=O)[C@H](C)N(C)C(=O)[C@H](CC2CCCCC2)NC(=O)[C@H](CC(C)C)N(C)C(=O)[C@H]2CCCN2C(=O)[C@H](CC2CCCCC2)NC(=O)[C@H](C)N(C)C(=O)[C@H](C2CCCCC2)NC(=O)Cn2cc(nn2)CN(C)C1=O | 2.96
CCCCCN1CC(=O)NC(CC(C)C)C(=O)N(C)C(C)C(=O)NC(Cc2ccccc2)C(=O)N2CCCC2C(=O)N(CC)CC(=O)NC(CC(C)C)C(=O)N(C)C(C)C(=O)NC(CC(C)C)C(=O)N2CCCC2C1=O (centres unmarked) | ≥ 3.4
CC[C@@H]1NC(=O)CN(CC)C(=O)[C@H]2CCCN2C(=O)[C@H](CC(C)C)NC(=O)[C@H](C)N(C)C(=O)[C@H](CC(C)C)NC(=O)Cn2cc(nn2)CN(C)C(=O)[C@H](CC(C)C)NC(=O)[C@H](C)N(C)C1=O | -1.65
CC(C)CC1NC(=O)CN(CC2CCCCC2)C(=O)C2CCCN2C(=O)C(CC(C)C)NC(=O)C(C)N(C)C(=O)C(CC(C)C)NC(=O)CN(CCCOC(C)C)C(=O)C2CCCN2C(=O)C(Cc2ccccc2)NC(=O)C(C)N(C)C1=O (centres unmarked) | 3.28
CCCN1CC(=O)N[C@@H](CC2CCCCC2)C(=O)N2CCC[C@@H]2C(=O)N(C)[C@@H](C)C(=O)N[C@@H](CC2CCCCC2)C(=O)N(C)[C@@H](C)C(=O)N[C@@H](CC(C)C)C(=O)N(C)Cc2cn(nn2)CC(=O)N[C@@H](C2CCCCC2)C1=O | 2.35
CC(C)C[C@@H]1NC(=O)CN(CCCOC(C)C)C(=O)[C@H](C)NC(=O)[C@H](CC(C)C)N(C)C(=O)[C@H]2CCCN2C(=O)[C@H](Cc2ccccc2)NC(=O)CN(CC2CCCCC2)C(=O)[C@H](C)NC(=O)[C@H](CC(C)C)N(C)C(=O)[C@H]2CCCN2C1=O | 2.66
CCN1CC(=O)NC(CC(C)C)C(=O)N(C)C(C)C(=O)NC(CC(C)C)C(=O)N2CCCC2C(=O)N(CC2CCOCC2)CC(=O)NC(CC(C)C)C(=O)N(C)C(C)C(=O)NC(C)C(=O)N2CCCC2C1=O (centres unmarked) | 0.441
CC(C)C[C@@H]1NC(=O)[C@H](C)N(C)C(=O)[C@H](CC2CCCCC2)NC(=O)CN(CC(C)C)C(=O)[C@H]2CCCN2C(=O)[C@H](CC(C)C)NC(=O)[C@H](C)N(C)C(=O)[C@H](CC(C)C)NC(=O)Cn2cc(nn2)CN(C)C1=O | 1.7
CC(C)C[C@@H]1NC(=O)[C@H](Cc2ccccc2)N(C)C(=O)[C@H]2CCCN2C(=O)[C@H](CC(C)C)NC(=O)[C@H](CC(C)C)N(C)C(=O)[C@@H](C)N(C)C1=O | 3.25
CCC[C@@H]1C(=O)N(C)[C@@H](CC2CCCCC2)C(=O)N[C@@H](CC2CCCCC2)C(=O)N2CCC[C@@H]2C(=O)N(C)[C@@H](Cc2ccc(O)cc2)C(=O)N[C@@H](CC(C)C)C(=O)N1C | 3.39
CCN1CC(=O)N[C@@H](CC2CCCCC2)C(=O)N(C)[C@@H](C)C(=O)N[C@@H](CC(C)C)C(=O)N(C)Cc2cn(nn2)CC(=O)N[C@@H](CC(C)C)C(=O)N(C)[C@@H](C)C(=O)N[C@@H](CC(C)C)C(=O)N2CCC[C@@H]2C1=O | 0.708

Sample 2
Structure (SMILES): c1ccc(-c2[nH]ncc2-c2ccnc3ccccc23)nc1
Read-out: enzyme activity
Action: inhibitor
Concentration: 0.5 µM
Reference: control
target | remaining activity
Macrophage-stimulating protein receptor (MST1R, Homo sapiens, UniProt Q04912) | 99.9%
Fibroblast growth factor receptor 3 (FGFR3, Homo sapiens, UniProt P22607) | 97.4%
Tyrosine-protein kinase Mer (MERTK, Homo sapiens, UniProt Q12866) | 92.6%
Serine/threonine-protein kinase TAO2 (TAOK2, Homo sapiens, UniProt Q9UL54) | 96.8%
Casein kinase I isoform gamma-3 (CSNK1G3, Homo sapiens, UniProt Q9Y6M4) | 96%
Fibroblast growth factor receptor 1 (FGFR1, Homo sapiens, UniProt P11362) | 94.2%
MAP kinase-activated protein kinase 2 (MAPKAPK2, Homo sapiens, UniProt P49137) | 100%
Angiopoietin-1 receptor (TEK, Homo sapiens, UniProt Q02763) | 98.8%
Serine/threonine-protein kinase Nek6 (NEK6, Homo sapiens, UniProt Q9HC98) | 106%
Ephrin type-A receptor 3 (EPHA3, Homo sapiens, UniProt P29320) | 99.3%
Serine/threonine-protein kinase TBK1 (TBK1, Homo sapiens, UniProt Q9UHD2) | 92.6%
Mitogen-activated protein kinase 3 (MAPK3, Homo sapiens, UniProt P27361) | 101%
Tyrosine-protein kinase FRK (FRK, Homo sapiens, UniProt P42685) | 92.8%
Casein kinase I isoform gamma-2 (CSNK1G2, Homo sapiens, UniProt P78368) | 103%
Serine/threonine-protein kinase ULK3 (ULK3, Homo sapiens, UniProt Q6PHR2) | 85.3%
Serine/threonine-protein kinase A-Raf (ARAF, Homo sapiens, UniProt P10398) | 91.5%
Tyrosine-protein kinase Lck (LCK, Homo sapiens, UniProt P06239) | 91.7%
Mitogen-activated protein kinase kinase kinase 14 (MAP3K14, Homo sapiens, UniProt Q99558) | 116%
Tyrosine-protein kinase ABL2 (ABL2, Homo sapiens, UniProt P42684) | 67.8%
Serine/threonine-protein kinase ULK2 (ULK2, Homo sapiens, UniProt Q8IYT8) | 95.6%
Activin receptor type-1B (ACVR1B, Homo sapiens, UniProt P36896) | 43.2%
Glycogen synthase kinase-3 beta (GSK3B, Homo sapiens, UniProt P49841) | 95.2%
Tyrosine-protein kinase JAK3 (JAK3, Homo sapiens, UniProt P52333) | 92.7%
Rhodopsin kinase GRK7 (GRK7, Homo sapiens, UniProt Q8WTQ7) | 102%
Dual specificity mitogen-activated protein kinase kinase 2 (MAP2K2, Homo sapiens, UniProt P36507) | 106%

Sample 3
Target: Calcium/calmodulin-dependent protein kinase type II subunit alpha (CAMK2A, Homo sapiens, UniProt Q9UQM7)
UniProt Q9UQM7, sequence (whole entry, looked up): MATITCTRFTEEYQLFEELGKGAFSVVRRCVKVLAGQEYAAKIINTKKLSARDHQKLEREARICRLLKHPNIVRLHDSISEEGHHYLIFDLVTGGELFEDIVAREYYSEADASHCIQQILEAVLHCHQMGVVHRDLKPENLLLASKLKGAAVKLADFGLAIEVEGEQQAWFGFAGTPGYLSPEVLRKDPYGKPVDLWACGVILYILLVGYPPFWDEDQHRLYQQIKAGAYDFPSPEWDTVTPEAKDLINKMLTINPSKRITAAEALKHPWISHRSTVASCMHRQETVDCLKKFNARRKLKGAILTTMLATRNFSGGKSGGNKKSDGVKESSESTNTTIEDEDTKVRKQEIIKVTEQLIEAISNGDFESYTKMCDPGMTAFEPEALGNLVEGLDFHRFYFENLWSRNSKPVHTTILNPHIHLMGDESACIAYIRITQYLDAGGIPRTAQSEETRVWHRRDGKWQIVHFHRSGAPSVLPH
Read-out: enzyme activity
Action: inhibitor
Concentration: 10 µM
SMILES | inhibition
C[C@@H]1O[C@@H](O[C@H]2[C@H](Oc3cc(O)c(C(=O)CCc4ccc(O)cc4)c(O)c3)O[C@H](CO)[C@@H](O)[C@@H]2O)[C@H](O)[C@H](O)[C@H]1O | -17%
COc1cc(/C=C/C(=O)N2CCN(CC(=O)N3CCCC3)CC2)cc(OC)c1OC | 1%
CC=CC(=O)C1=C(C)C=CCC1(C)C | 39%
COc1ccc(/C=C/C(=O)C(C)(C)C(=O)/C=C/c2ccc(OC)c(OC)c2)cc1OC | -35%
C[C@@H]1O[C@@H](c2c(O)c([C@@H]3O[C@H](CO)[C@@H](O)[C@H](O)[C@H]3O)c(O)c3c(=O)cc(-c4ccc(O)cc4)oc23)[C@H](O)[C@H](O)[C@H]1O | -61%
CN1CCN(c2ccc(C(=O)Nc3n[nH]c4ccc(Cc5cc(F)cc(F)c5)cc34)c(NC3CCOCC3)c2)CC1 | -1%
CS(=O)(=O)OC[C@H](O)[C@@H](O)COS(C)(=O)=O | 0%
O=C(/C=C/c1ccc(O)c(O)c1)OC[C@H]1O[C@@H](OCCc2ccc(O)c(O)c2)[C@H](O)[C@@H](O)[C@@H]1O | -37%
CC(C)(C(=O)O)c1ccc(C(O)CCCN2CCC(C(O)(c3ccccc3)c3ccccc3)CC2)cc1 (centres unmarked) | -14%
CC(C)(O)[C@@H]1CC[C@](C)([C@H]2[C@@H](O)C[C@@]3(C)[C@@H]4C[C@H](O)[C@H]5C(C)(C)[C@@H](O[C@@H]6OC[C@@H](O)[C@H](O)[C@H]6O[C@@H]6O[C@H](CO)[C@@H](O)[C@H](O)[C@H]6O)CC[C@@]56C[C@@]46CC[C@]23C)O1 | -17%
COc1ccc2c(c1)C(=O)N(CCc1ccc(S(=O)(=O)NC(=O)NC3CCCCC3)cc1)C(=O)C2(C)C | -10%
CCCCCCCCN=c1ccn(CCCCCCCCCCn2ccc(=NCCCCCCCC)cc2)cc1 | 32%
O=C(O)CCc1ccc(O)c(O)c1 | -45%
Nc1nc(/C(=C/CC(=O)O)C(=O)N[C@@H]2C(=O)N3C(C(=O)O)=CCS[C@H]23)cs1 | -2%

Sample 4
Compound: O=C(N[C@H]1CCCCC/C=C\C2C[C@@]2(C(=O)O)NC(=O)[C@@H]2C[C@@H](Oc3ccncc3)CN2C1=O)OC1CCCC1 (some centres unmarked)
Technique: competition with immobilised ligand
Concentration: 1 µM
target | read-out | remaining binding [%]
SNF-related serine/threonine-protein kinase (SNRK, Homo sapiens, UniProt Q9NRH2) | binding | 97
Glycogen synthase kinase-3 beta (GSK3B, Homo sapiens, UniProt P49841) | binding | 89
Interferon-induced, double-stranded RNA-activated protein kinase (EIF2AK2, Homo sapiens, UniProt P19525) | binding | 100
BMP-2-inducible protein kinase (BMP2K, Homo sapiens, UniProt Q9NSY1) | binding | 96
Receptor tyrosine-protein kinase erbB-2 (ERBB2, Homo sapiens, UniProt P04626) | binding | 100
Serine/threonine-protein kinase 4 (STK4, Homo sapiens, UniProt Q13043) | binding | 100
Myosin light chain kinase 2, skeletal/cardiac muscle (MYLK2, Homo sapiens, UniProt Q9H1R3) | binding | 100
Serine/threonine-protein kinase STK11 (STK11, Homo sapiens, UniProt Q15831) | binding | 85
Epidermal growth factor receptor (EGFR, Homo sapiens, UniProt P00533, L858R/T790M) | cell-free assay | 98
Dual specificity protein kinase CLK2 (CLK2, Homo sapiens, UniProt P49760) | binding | 100
SRSF protein kinase 3 (SRPK3, Homo sapiens, UniProt Q9UPE1) | binding | 89
Serine/threonine-protein kinase DCLK1 (DCLK1, Homo sapiens, UniProt O15075) | binding | 97
Casein kinase I isoform epsilon (CSNK1E, Homo sapiens, UniProt P49674) | binding | 67
Mitogen-activated protein kinase 9 (MAPK9, Homo sapiens, UniProt P45984) | binding | 94
Cytoplasmic tyrosine-protein kinase BMX (BMX, Homo sapiens, UniProt P51813) | binding | 66
Mitogen-activated protein kinase 1 (MAPK1, Homo sapiens, UniProt P28482) | binding | 72
Ribosomal protein S6 kinase alpha-3, C-terminal kinase domain (RPS6KA3, Homo sapiens, UniProt P51812) | binding | 89
Phosphatidylinositol 4,5-bisphosphate 3-kinase catalytic subunit alpha isoform (PIK3CA, Homo sapiens, UniProt P42336, Q546K) | binding | 98
Cyclin-dependent kinase 18 (CDK18, Homo sapiens, UniProt Q07002) | binding | 92
Activated CDC42 kinase 1 (TNK2, Homo sapiens, UniProt Q07912) | binding | 100
Serine/threonine-protein kinase NIM1 (NIM1K, Homo sapiens, UniProt Q8IY84) | binding | 82

For quick reference, copied from above (sample 4):
target | read-out | remaining binding [%]
Casein kinase I isoform epsilon (CSNK1E, Homo sapiens, UniProt P49674) | binding | 67
Mitogen-activated protein kinase 9 (MAPK9, Homo sapiens, UniProt P45984) | binding | 94
Cytoplasmic tyrosine-protein kinase BMX (BMX, Homo sapiens, UniProt P51813) | binding | 66
Mitogen-activated protein kinase 1 (MAPK1, Homo sapiens, UniProt P28482) | binding | 72
Ribosomal protein S6 kinase alpha-3, C-terminal kinase domain (RPS6KA3, Homo sapiens, UniProt P51812) | binding | 89
Phosphatidylinositol 4,5-bisphosphate 3-kinase catalytic subunit alpha isoform (PIK3CA, Homo sapiens, UniProt P42336, Q546K) | binding | 98
Cyclin-dependent kinase 18 (CDK18, Homo sapiens, UniProt Q07002) | binding | 92
Activated CDC42 kinase 1 (TNK2, Homo sapiens, UniProt Q07912) | binding | 100
Serine/threonine-protein kinase NIM1 (NIM1K, Homo sapiens, UniProt Q8IY84) | binding | 82
